Measured values from different studies.
Lines come from different studies, so protocols differ.
Organism: Plasmodium falciparum

| SMILES | test | test system | setting | how to read | endpoint | result |
| --- | --- | --- | --- | --- | --- | --- |
| CC[C@H](C)[C@H](NC(=O)[C@@H](NC(=O)[C@H](Cc1ccc(O)cc1)NC(=O)[C@H](CCCCN)NC(=O)[C@H](CCCCN)NC(=O)[C@H](CC(C)C)NC(=O)[C@H](CC(=O)O)NC(=O)[C@H](Cc1ccc(O)cc1)NC(=O)[C@H](CCC(N)=O)NC(=O)[C@H](CCCCN)NC(=O)[C@@H](NC(=O)[C@H](Cc1ccccc1)NC(=O)[C@H](CCCCN)NC(=O)[C@H](CCCCN)NC(=O)[C@H](Cc1c[nH]c2ccccc12)NC(=O)[C@H](CCCCN)NC(=O)[C@H](CCSC)NC(=O)[C@H](CCCNC(=N)N)NC(=O)[C@H](CCCNC(=N)N)NC(=O)[C@H](CC(N)=O)NC(=O)[C@H](CCC(N)=O)NC(=O)[C@H](Cc1ccccc1)NC(=O)[C@H](Cc1c[nH]c2ccccc12)NC(=O)[C@@H](NC(=O)[C@H](CCCCN)NC(=O)[C@@H](NC(=O)[C@H](CCC(N)=O)NC(=O)[C@@H](N)CCCNC(=N)N)[C@@H](C)CC)[C@@H](C)CC)[C@@H](C)CC)[C@@H](C)CC)C(=O)O |  |  | 90 µM, 16 h |  | TUNEL-positive parasites | ~90% |
| CC[C@H](C)[C@@H]1NC(=O)[C@H](CCCCN)NC(=O)[C@H](CCCCN)NC(=O)[C@H](Cc2ccc(O)cc2)NC(=O)[C@H](CC(C)C)NC(=O)[C@@H]2CCCN2C(=O)[C@H](C)NC(=O)CNC(=O)CNC(=O)[C@H](CO)NC(=O)CNC(=O)CNC(=O)[C@H](CO)NC(=O)[C@H](CCC(=O)O)NC(=O)[C@H](CC(C)C)NC(=O)[C@H](CC(C)C)NC(=O)[C@H](CCCCN)NC(=O)[C@H](CCCCN)NC(=O)[C@H]([C@@H](C)CC)NC(=O)[C@H]([C@@H](C)CC)NC(=O)[C@H](CCCCN)NC(=O)[C@H](CCCCN)NC(=O)[C@H](Cc2ccc(O)cc2)NC(=O)[C@H](CC(C)C)NC(=O)[C@@H]2CCCN2C(=O)[C@H](C)NC(=O)CNC(=O)[C@@H]2CSSC[C@H](NC(=O)[C@H](CC(C)C)NC(=O)[C@H](CCCCN)NC(=O)[C@H](CCCCN)NC(=O)[C@H]([C@@H](C)CC)NC1=O)C(=O)N[C@@H](CCC(N)=O)C(=O)N[C@@H](CC(N)=O)C(=O)NCC(=O)N2 |  | 3D7 | 5 mg/mL Albumax II | reference: RBC HC10 over P. falciparum IC50 | selectivity index | > 7 |
| Cc1ccc(NCC(=O)Nc2ccc(F)c(Cl)c2)cc1CN1CCOCC1 | parasite growth | 3D7 | blood stage |  | EC50 | > 50 µM |
| CCCCN1C(=O)c2ccc3c4c(ccc(c24)C1=O)C(=O)N(CCNc1c2ccc(Cl)cc2nc2ccc(OC)cc12)C3=O | parasite growth, SYBR Green | 3D7 | 50 nM, blood stage |  | inhibition | ~80% |
| C[OH+][Cu-2]12[O]C(c3cn(-c4ccccc4)nc3-c3ccc(F)cc3)=N[N+]1=C(C)c1c(cc(C)oc1=O)[O]2 (centres unmarked) |  | 3D7 | 100 µg/mL, 72 h |  | parasitaemia | 0% |
| CN1CCC[C@@H]1C(=O)N[C@@H](Cc1ccc(-c2ccccc2)cc1)B(O)O |  | Pf3D7 0087/N9, SCID mouse | oral, 50 mg/kg, daily for 4 days |  | residual parasitaemia | 0.14% |
| Clc1ccc2c(c1)nc(N1CCNCC1)n2-c1ccccc1 | pLDH | NF54 | concentration not given, 48 h |  | antiplasmodial activity | inactive |
| CCN(CC)c1ccc2nc3c4ccccc4/c(=N/c4ccncc4)cc-3oc2c1 |  | NF54 | 250 ng/mL, 6 h, rings, trophozoites, schizonts |  | growth inhibition | > 99% |
| Cc1ccc(CNC(=O)[C@H](CC(C)C)NC(=O)[C@H](CCc2ccccc2)NC(=O)c2cnc(C)cn2)cc1 |  | D10 | 72 h | reference: HFF EC50 over P. falciparum EC50 | selectivity ratio | 276 |
| C[C@H]1[C@@H](CCCOCc2cnnn2CCC[C@H]2O[C@@H]3O[C@@]4(C)CC[C@H]5[C@H](C)CC[C@@H]([C@H]2C)[C@@]35O4)O[C@@H]2O[C@@]3(C)CC[C@H]4[C@H](C)CC[C@@H]1[C@@]24O3 |  | W2 | 72 h | reference: HepG2 over blood-stage parasites | selectivity index | > 4.68 |
| CC(=O)O[C@@H]1C[C@H]2C(C)(C)C(=O)C=C[C@]2(C)[C@H]2CC[C@]3(C)C(=CC[C@H]3C3=CC(O)OC3=O)[C@@]21C (some centres unmarked) | parasite growth | D6 and W2 | concentration not given |  | antiplasmodial activity class | active |
